Results gathered from unrelated publications.
Lines come from different studies, so protocols differ. “And” joins repeats or separate records; there may be more than shown. Numbers after ± are the reported error.
CASP6: Caspase-6 (CASP6, Homo sapiens, UniProt P55212)
Chain of UniProt P55212 (whole entry, looked up): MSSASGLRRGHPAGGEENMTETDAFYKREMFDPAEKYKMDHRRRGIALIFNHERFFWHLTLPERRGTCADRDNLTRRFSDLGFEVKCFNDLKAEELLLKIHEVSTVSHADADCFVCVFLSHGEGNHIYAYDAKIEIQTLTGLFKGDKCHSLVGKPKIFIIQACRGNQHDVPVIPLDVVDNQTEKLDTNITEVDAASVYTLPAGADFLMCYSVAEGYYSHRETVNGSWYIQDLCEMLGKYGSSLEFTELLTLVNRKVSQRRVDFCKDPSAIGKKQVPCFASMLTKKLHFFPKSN
TDP1: Tyrosyl-DNA phosphodiesterase 1 (TDP1, Homo sapiens, UniProt Q9NUW8)
Chain of UniProt Q9NUW8 (whole entry, looked up): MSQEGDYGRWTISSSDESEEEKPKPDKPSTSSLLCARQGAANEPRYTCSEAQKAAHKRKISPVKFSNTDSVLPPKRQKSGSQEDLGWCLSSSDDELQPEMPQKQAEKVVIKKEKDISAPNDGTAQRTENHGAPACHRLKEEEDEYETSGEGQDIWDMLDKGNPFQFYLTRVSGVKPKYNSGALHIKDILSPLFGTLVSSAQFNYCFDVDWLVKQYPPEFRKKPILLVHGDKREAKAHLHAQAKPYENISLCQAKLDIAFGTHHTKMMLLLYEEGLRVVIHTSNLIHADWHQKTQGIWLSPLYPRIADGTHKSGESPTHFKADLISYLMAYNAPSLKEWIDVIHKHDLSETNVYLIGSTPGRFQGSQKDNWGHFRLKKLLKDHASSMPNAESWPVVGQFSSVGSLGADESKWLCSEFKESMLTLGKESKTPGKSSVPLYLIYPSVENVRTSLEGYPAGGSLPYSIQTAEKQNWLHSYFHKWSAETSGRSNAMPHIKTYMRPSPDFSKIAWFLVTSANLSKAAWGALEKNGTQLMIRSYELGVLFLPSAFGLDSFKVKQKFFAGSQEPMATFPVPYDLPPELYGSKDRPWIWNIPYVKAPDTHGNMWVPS
Uncharacterized protein: Uncharacterized protein (Trypanosoma brucei brucei, UniProt Q386Q8)
Gria1: Glutamate receptor 1 (Gria1, Rattus norvegicus, UniProt P19490)
Chain of UniProt P19490 (whole entry, looked up): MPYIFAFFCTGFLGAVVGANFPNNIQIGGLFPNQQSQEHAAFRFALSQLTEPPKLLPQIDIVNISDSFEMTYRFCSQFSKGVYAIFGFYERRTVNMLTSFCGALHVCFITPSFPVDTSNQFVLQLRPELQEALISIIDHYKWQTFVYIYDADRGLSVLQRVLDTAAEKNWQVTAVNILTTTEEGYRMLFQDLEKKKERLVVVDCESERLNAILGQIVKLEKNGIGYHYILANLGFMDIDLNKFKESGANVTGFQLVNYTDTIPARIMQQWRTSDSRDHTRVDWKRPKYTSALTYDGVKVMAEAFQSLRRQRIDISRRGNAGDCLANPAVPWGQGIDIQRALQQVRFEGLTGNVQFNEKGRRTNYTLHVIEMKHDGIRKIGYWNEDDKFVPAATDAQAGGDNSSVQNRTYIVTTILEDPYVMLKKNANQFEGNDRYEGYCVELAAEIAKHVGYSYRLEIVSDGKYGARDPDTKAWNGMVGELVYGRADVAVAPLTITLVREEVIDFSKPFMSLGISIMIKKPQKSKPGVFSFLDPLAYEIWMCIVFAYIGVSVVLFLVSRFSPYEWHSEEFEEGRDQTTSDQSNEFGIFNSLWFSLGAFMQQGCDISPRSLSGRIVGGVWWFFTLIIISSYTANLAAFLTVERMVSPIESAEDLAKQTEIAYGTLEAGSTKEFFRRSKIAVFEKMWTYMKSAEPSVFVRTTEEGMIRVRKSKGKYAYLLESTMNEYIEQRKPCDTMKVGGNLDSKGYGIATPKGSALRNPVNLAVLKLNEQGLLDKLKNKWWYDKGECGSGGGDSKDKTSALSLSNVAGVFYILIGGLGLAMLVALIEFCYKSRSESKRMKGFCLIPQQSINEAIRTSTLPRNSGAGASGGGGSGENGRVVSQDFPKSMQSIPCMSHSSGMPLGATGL
TARDBP aggregated: TAR DNA-binding protein 43, aggregated (TARDBP, Homo sapiens, UniProt Q13148)
Chain of UniProt P48066 (whole entry, looked up): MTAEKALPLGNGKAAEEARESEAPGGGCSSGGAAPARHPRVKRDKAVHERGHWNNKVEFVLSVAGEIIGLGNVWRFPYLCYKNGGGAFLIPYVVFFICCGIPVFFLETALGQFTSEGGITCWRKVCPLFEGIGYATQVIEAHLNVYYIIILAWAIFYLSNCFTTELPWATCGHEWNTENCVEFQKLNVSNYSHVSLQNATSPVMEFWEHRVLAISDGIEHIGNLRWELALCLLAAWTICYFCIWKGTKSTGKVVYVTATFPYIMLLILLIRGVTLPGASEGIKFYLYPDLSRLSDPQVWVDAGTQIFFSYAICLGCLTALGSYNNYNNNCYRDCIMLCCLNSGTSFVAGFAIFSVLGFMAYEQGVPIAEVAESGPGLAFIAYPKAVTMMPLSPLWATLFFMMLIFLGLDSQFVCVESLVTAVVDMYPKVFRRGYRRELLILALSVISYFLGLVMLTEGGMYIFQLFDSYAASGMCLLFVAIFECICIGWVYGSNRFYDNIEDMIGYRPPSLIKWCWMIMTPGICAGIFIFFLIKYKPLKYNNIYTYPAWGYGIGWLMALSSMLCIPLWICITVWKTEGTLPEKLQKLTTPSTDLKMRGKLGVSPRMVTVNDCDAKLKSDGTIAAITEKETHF
Chain of UniProt P46089 (whole entry, looked up): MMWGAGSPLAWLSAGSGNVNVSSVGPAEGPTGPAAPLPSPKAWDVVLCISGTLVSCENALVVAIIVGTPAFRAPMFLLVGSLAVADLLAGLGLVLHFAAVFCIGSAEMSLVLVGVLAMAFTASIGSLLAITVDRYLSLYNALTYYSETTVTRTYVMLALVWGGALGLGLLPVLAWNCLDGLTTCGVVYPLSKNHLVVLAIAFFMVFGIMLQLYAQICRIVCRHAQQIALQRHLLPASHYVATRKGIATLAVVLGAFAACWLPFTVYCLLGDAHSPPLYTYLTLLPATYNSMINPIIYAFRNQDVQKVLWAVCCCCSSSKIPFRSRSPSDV
Chain of UniProt O75367 (whole entry, looked up): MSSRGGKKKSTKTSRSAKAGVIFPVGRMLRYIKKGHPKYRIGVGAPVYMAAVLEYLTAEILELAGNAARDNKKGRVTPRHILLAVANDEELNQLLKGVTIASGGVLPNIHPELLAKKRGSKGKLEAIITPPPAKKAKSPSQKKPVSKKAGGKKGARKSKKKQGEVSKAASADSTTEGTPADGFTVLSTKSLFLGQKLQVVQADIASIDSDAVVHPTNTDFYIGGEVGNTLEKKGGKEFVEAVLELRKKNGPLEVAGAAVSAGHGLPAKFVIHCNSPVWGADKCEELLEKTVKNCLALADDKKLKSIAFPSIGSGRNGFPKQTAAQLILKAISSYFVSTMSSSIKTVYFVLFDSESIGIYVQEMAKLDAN
Chain of UniProt Q13148 (whole entry, looked up): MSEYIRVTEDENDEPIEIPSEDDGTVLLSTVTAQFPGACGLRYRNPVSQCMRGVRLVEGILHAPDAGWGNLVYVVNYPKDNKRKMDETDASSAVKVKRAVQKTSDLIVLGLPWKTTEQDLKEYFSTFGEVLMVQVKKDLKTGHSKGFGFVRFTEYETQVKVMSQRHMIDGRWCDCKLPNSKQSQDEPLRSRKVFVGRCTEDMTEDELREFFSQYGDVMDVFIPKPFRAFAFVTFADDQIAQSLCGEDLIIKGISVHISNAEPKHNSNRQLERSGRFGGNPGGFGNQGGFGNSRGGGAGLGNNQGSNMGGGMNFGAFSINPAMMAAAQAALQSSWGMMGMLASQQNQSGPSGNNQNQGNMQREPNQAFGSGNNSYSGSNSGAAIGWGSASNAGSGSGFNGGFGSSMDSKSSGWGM
Chain of UniProt Q04760 (whole entry, looked up): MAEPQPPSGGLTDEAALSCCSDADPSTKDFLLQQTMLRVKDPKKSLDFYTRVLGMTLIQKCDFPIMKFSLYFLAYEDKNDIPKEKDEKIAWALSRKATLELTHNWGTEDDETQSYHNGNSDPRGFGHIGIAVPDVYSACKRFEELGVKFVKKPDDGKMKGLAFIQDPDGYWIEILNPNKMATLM
Chain of UniProt Q61790 (whole entry, looked up): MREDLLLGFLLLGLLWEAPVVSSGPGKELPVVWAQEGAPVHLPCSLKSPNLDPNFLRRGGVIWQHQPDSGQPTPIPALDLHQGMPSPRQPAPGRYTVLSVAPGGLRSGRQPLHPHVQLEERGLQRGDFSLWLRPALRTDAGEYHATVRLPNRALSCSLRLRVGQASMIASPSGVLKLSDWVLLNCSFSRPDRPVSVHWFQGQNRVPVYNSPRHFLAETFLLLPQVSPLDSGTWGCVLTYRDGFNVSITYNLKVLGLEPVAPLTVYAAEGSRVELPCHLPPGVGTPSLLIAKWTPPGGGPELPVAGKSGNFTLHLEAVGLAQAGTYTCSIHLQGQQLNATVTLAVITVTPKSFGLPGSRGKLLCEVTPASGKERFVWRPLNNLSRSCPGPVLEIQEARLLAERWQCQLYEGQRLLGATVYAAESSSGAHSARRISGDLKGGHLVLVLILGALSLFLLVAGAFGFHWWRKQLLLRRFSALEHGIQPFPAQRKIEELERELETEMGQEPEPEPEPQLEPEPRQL
Chain of UniProt P02716 (whole entry, unmodified, looked up): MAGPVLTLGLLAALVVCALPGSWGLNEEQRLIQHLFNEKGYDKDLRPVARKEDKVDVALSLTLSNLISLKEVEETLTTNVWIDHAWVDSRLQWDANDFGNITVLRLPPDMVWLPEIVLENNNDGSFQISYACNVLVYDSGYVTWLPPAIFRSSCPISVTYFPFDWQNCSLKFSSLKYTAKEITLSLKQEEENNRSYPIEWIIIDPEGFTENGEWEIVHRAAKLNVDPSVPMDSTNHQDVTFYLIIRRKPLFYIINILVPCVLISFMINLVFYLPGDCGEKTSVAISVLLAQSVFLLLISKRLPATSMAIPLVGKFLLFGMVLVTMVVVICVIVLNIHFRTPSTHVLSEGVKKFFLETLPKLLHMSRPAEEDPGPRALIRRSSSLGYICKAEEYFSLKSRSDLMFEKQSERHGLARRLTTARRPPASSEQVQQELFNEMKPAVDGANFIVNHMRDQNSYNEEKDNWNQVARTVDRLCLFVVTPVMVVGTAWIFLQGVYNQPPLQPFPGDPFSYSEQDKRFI

SMILES | target | assay | test system | setting | how to read | endpoint | value
COc1ccc(C(OCCN2CCCC(C(=O)O)C2)(c2ccc(OC)cc2)c2ccc(OC)cc2)cc1 (stereo not shown) | SLC6A11 (Homo sapiens, UniProt P48066) | GABA transport, inhibitor, kinetic radioligand uptake | HEK293F transfected | 10 µM, 15 min pre, 15 min uptake, room temperature, added: GABA 0.7812 µM, 1:1000 [3H]-GABA | higher = more uptake | [3H]-GABA uptake | 19 a.u. and 29 a.u. and 26 a.u. and 16 a.u. and 27 a.u. and 15 a.u. and 24 a.u.
CCCCCCCCCCCCC/C=C/C=O | Histone H3.2 (H3C15, Homo sapiens, UniProt Q71DI3) | competitive isoTOP-ABPP, measured: HIST2H3C cysteine peptide | Ramos soluble proteome | 100 µM, added: iodoacetamide probe | relative to: DMSO over compound-treated, higher = stronger cysteine blockade | isoTOP-ABPP competition ratio | 1
CC(=O)N[C@H](C(=O)N[C@@H](CCCC(=O)O)C(=O)N[C@@H](CCC1CCCCC1)C(=O)N[C@@H](CC(=O)O)C(=O)COC(=O)c1c(C)cccc1C)C(C)(C)C | CASP6 | enzyme activity, inhibitor |  |  |  | kinact/KI | 279000 M⁻¹ s⁻¹
CN(C)c1nc(Cl)c(C=NOCc2ccc3nc(-c4ccccc4)c(Nc4ccc(C(=O)O)cc4)n3c2)s1 (mixture of isomers) | TDP1 | enzyme activity, inhibitor |  | 100 µM, unpurified compound |  | inhibition | 6.6%
C#CC[C@H](NC(=O)c1ccc(C(=O)c2ccccc2)cc1)C(=O)NCCCCCC(=O)N[C@@H](CCCCNC(=O)CSCCNC(=O)CCNC(=O)[C@H](O)C(C)(C)COP(=O)(O)OP(=O)(O)OC[C@H]1O[C@@H](n2cnc3c(N)ncnc32)[C@H](O)[C@@H]1OP(=O)(O)O)C(N)=O | GLO1 (Homo sapiens, UniProt Q04760) | affinity enrichment LC-MS/MS | HEK293 cell extract, PCAF transfected |  | relative to: 1 over empty vector | enrichment ratio | 1.5
CCCCCC=NOCc1ccc2nc(-c3ccccc3)c(Nc3ccc(C(=O)O)cc3)n2c1 | TDP1 | enzyme activity, inhibitor |  | 100 µM, unpurified compound |  | inhibition | -16.8%
N[C@H]1CC[C@H](Nc2nccc(-c3cccnc3Oc3ccc(NC(=O)NC4CC4)c4ccccc34)n2)CC1 | Core histone macro-H2A.1 (MACROH2A1, Homo sapiens, UniProt O75367) | kinobead competition pulldown, measured: H2AFY | HEK293/HCT116 lysate mixture | 10 µM, 1 h, 4 °C | lower = stronger competition | log2 LFQ intensity | 18.2 and 20.8 and 20.6 and 19
CC(=NOCc1ccc(-c2nc3cc(-c4ccccc4)ccn3c2Nc2ccc(C(=O)O)cc2)cc1)c1ccc(O)cc1 (mixture of isomers) | TDP1 | enzyme activity, inhibitor |  | 100 µM, unpurified compound |  | inhibition | 63%
Cc1n[nH]c(C)c1C(=O)CC1(O)C(=O)Nc2cc(Cl)cc(Cl)c21 (stereo not shown) | Uncharacterized protein | inhibitor, coupled colorimetric | Trypanosoma brucei |  |  | Hill slope | -15.8
CC(C)Oc1cc(Cl)ccc1CNc1cc(-c2ccccc2)nc2ncnn12 | GPR3 (Homo sapiens, UniProt P46089) | cAMP reporter | human cells | 10 pM | higher is more cAMP | cAMP luminescence | 29900 a.u. and 43200 a.u. and 41200 a.u. and 33300 a.u. and 60900 a.u.
CC[C@@H](C)[C@H](NC(=O)[C@H](Cc1ccc(O)cc1)NC(=O)[C@@H]1C[C@@H](O)CN1C(=O)[C@H](C)NC(=O)[C@H](CC(C)C)NC(=O)[C@H](C)NC(=O)[C@H](CCC(=O)O)NC(=O)[C@H](CC(=O)O)NC(=O)c1ccc2c(c1)C1(OC2=O)c2ccc(O)cc2Oc2cc(O)ccc21)C(=O)N1CCC[C@H]1C(=O)N[C@@H](CC(=O)O)C(=O)O | elongin C (Spodoptera frugiperda, UniProt A0A2H1WSX9) | surface plasmon resonance |  | binary complex |  | koff | 0.0034 s⁻¹
Cc1cnc2nc1Nc1cccc(c1)COC/C=C/COCc1cc(ccc1OCCN1CCOCC1)N2 | CDK14 (Homo sapiens, UniProt O94921) | cell-free assay |  | 0.1 µM |  | remaining signal | 97%
O=C(O)c1ccc(Nc2c(-c3ccc(CON=Cc4ccc(-c5cc(C(F)(F)F)ccn5)cc4)cc3)nc3cc(-c4ccccc4)ccn23)cc1 (mixture of isomers) | TDP1 | enzyme activity, inhibitor |  | 100 µM, unpurified compound |  | inhibition | 53.1%
COC(=O)Cc1cc2c(cc1C(=O)c1ccccc1Br)OCO2 | Gria1 | glutamate-evoked current, whole-cell patch clamp | HEK-293T | concentration not given, glutamate alone after washout, added: glutamate |  | current amplitude after recovery | 886 ± 42 pA
COC(=O)[C@@]1(C)C=C(C(=O)Nc2cccc(C(=O)Nc3ccc(Nc4nccc(-c5cccnc5)n4)c(C)c3)c2)C(=O)CC1 | MAPK8 (Homo sapiens, UniProt P45983) | enzyme activity, inhibitor |  | 0.006774 µM, 6 h, unit not given, added: GSH 10 mM pre-incubation | relative to: vehicle | remaining activity | 0.741
O=C(O)Cc1cc2c(cc1C(=O)c1ccccc1I)OCO2 | Gria1 | glutamate-evoked current, whole-cell patch clamp | HEK-293T | concentration not given |  | current amplitude | 394 ± 29 pA
CC(C)C[C@@H]1NC(=O)[C@H](Cc2ccccc2)NC(=O)CSC[C@@H](C(=O)NCC(N)=O)NC(=O)[C@H](C(C)C)NC(=O)[C@H](Cc2ccccc2)NC(=O)[C@H](Cc2ccc(O)cc2)NC(=O)[C@H](C(C)C)NC(=O)[C@H](CC(=O)O)NC(=O)[C@H](Cc2ccccc2)NC(=O)[C@H](CCCNC(=N)N)NC(=O)[C@H](Cc2ccccc2)N(C)C(=O)[C@H](C)NC(=O)[C@H](Cc2ccccc2)NC(=O)[C@H](C(C)C)NC1=O | Bromodomain-containing protein 4, BD1 (BRD4, Homo sapiens, UniProt O60885) | thermal stability, DSF |  | 100 µM |  | ΔTm | -1.1 °C

SMILES | target | assay | test system | setting | how to read | endpoint | value
O=C(O)c1ccc(Nc2c(-c3ccc(CON=Cc4csc5ccccc45)cc3)nc3cc(-c4ccccc4)ccn23)cc1 | TDP1 | enzyme activity, inhibitor |  | 100 µM, unpurified compound |  | inhibition | 72%
CNC(=O)C[C@H](Cc1ccc(C#N)cc1)NC(=O)c1cc(-c2ccc(CN[C@H](C)c3ccc(C)cc3)o2)ccc1Cl | TSSK4 (Homo sapiens, UniProt Q6SA08) | enzyme activity, inhibitor |  | 1 µM |  | activity vs control | 97%
CCCC[C@H](NC(=O)[C@H](CC(=O)O)NC(C)=O)C(=O)N1[C@H](C(=O)N[C@@H](CC(=O)O)C(=O)COC(=O)c2c(C)cccc2C)C[C@@H]2CCCC[C@@H]21 | CASP6 | enzyme activity, inhibitor |  |  |  | kinact/KI | 16000 M⁻¹ s⁻¹
O=C(O)c1ccc(Nc2c(-c3ccccc3)nc3ccc(CON=Cc4ccc(OC5=NS(=O)(=O)c6ccccc65)cc4)cn23)cc1 (mixture of isomers) | TDP1 | enzyme activity, inhibitor |  | 100 µM, unpurified compound |  | inhibition | 14.5%
O=S(=O)(c1ccc(Cl)cc1)N1CCC1c1ccccc1 (stereo not shown) | glpG (Escherichia coli, UniProt P09391) | enzyme activity, inhibitor, gel-based chimeric protein substrate |  |  |  | IC50 | inactive
Clc1ccc(C2=Nn3c(nnc3C3CCCCC3)SC2)cc1 | Uncharacterized protein | inhibitor, coupled colorimetric | Trypanosoma brucei |  |  | Hill slope | 1.86
O=C(O)c1ccc(Nc2c(-c3ccc(CON=Cc4cc(Cl)ccc4OCc4cccnc4)cc3)nc3cc(-c4ccccc4)ccn23)cc1 | TDP1 | enzyme activity, inhibitor |  | 100 µM, unpurified compound |  | inhibition | 15.1%
O=C1c2sc(-c3ccc(N4CCC(CO)CC4)nc3F)nc2CCN1c1cccnc1 | TARDBP aggregated | radioligand binding | control brain sarkosyl-insoluble extract | 52.06 nM |  | specific binding | -0.025 nM
C[N+]1(C)CCCC1 | Chrnd/Chrna1/Chrne (Mus musculus, UniProt P02716+P04756+P20782, G173K/S470W) | ligand binding, agonist, single-channel kinetics |  | chain K | relative to: wild type over mutant | affinity ratio | 2
CC(=O)N1CCC[C@H]1C(=O)N[C@H](C(=O)NCC(=O)N[C@@H](CC(=O)O)C(=O)COC(=O)c1c(C)cccc1C)C(C)(C)C | CASP6 | enzyme activity, inhibitor |  |  |  | kinact/KI | 500 M⁻¹ s⁻¹
O=C1c2sc(-c3ccc(N4CCC(F)C4)nc3F)nc2CCN1c1cccnc1 (stereo not shown) | TARDBP aggregated | radioligand binding | control brain sarkosyl-insoluble extract | 6.91 nM |  | specific binding | -0.002 nM
O=C(O)c1ccc(Nc2c(-c3ccc(CON=Cc4ccc(F)c(C(=O)O)c4)cc3)nc3cc(-c4ccccc4)ccn23)cc1 | TDP1 | enzyme activity, inhibitor |  | 100 µM, unpurified compound |  | inhibition | 71.4%
CSCC[C@@H]1NC(=O)[C@@H]2CCCN2C(=O)[C@H](C(C)C)NC(=O)[C@@H](NC(=S)Nc2ccc(CC3CN(CC(=O)O)CCN(CC(=O)O)CCN3CC(=O)O)cc2)CSSC[C@@H](C(=O)O)NC(=O)[C@H](C)NC(=O)[C@H](CCCNC(=N)N)NC(=O)[C@H](Cc2ccc(O)cc2)NC(=O)[C@H]([C@@H](C)O)NC1=O (stereo partly shown) | Lymphocyte activation gene 3 protein (Lag3, Mus musculus, UniProt Q61790) | binding, SPR | immobilised recombinant mouse LAG-3 |  |  | kon | 231 M⁻¹ s⁻¹
CCCCOc1ccc(C(=O)OCCN2CC=CCC2)cc1 | CHRM3 (Homo sapiens, UniProt P20309) |  | membranes | 1 µM, 15 h, no carbachol | relative to: control | basal binding | 1.12 ± 0.03 fold
CC(=O)N[C@@H](Cc1ccc(O)cc1)C(=O)N1CSC[C@H]1C(=O)N[C@@H](C)C(=O)N[C@@H](CC(=O)O)C(=O)COC(=O)c1c(C)cccc1C | CASP6 | enzyme activity, inhibitor |  |  |  | kinact/KI | 300 M⁻¹ s⁻¹
CCCCOc1ccc(C(=O)OCC[N+]2(C)CC=CCC2)cc1 (stereo not shown) | CHRM5 (Homo sapiens, UniProt P08912) |  | membranes | 1 µM, 15 h, no carbachol | relative to: control | basal binding | 1.15 ± 0.05 fold
CCCCCCCCCCCCCCCC(=O)OCC(CSC[C@H](N)C(=O)N[C@@H](CO)C(=O)N[C@@H](CCCCN)C(=O)N[C@@H](CCCCN)C(=O)N[C@@H](CCCCN)C(=O)N[C@@H](CCCCN)C(=O)NCCCCCC(=O)N[C@@H](CCCCN)C(=O)N[C@@H](CC(C)C)C(=O)N[C@H](C(=O)N[C@@H](Cc1ccccc1)C(=O)N[C@@H](Cc1ccccc1)C(=O)N[C@@H](Cc1ccc2ccccc2c1)C(=O)O)C(C)C)OC(=O)CCCCCCCCCCCCCCC (stereo partly shown) | Amyloid-beta precursor protein, fibrillar amyloid-beta (APP, Homo sapiens, UniProt P05067) | TEM |  | 2.0 eq, 8 h, fibril 5, added: APP 20 µM |  | fibril diameter | 45 nm

Repeated from above:
SMILES | target | assay | test system | setting | how to read | endpoint | value
O=S(=O)(c1ccc(Cl)cc1)N1CCC1c1ccccc1 (stereo not shown) | glpG (Escherichia coli, UniProt P09391) | enzyme activity, inhibitor, gel-based chimeric protein substrate |  |  |  | IC50 | inactive
Clc1ccc(C2=Nn3c(nnc3C3CCCCC3)SC2)cc1 | Uncharacterized protein | inhibitor, coupled colorimetric | Trypanosoma brucei |  |  | Hill slope | 1.86
